Assay results gathered from unrelated publications.
Several values in a cell are separate wells, animals, samples, runs or records. ± marks the error that the study gave.

CC(=O)Nc1ccc(C2CCCCC2)cc1 — hepatic clearance (liver microsome stability; rat liver microsomes; 1 µM): 53 mL/min/kg
C=CC(=O)Nc1cc(Nc2nccc(-c3c[nH]c4ccccc34)n2)c(OC)cc1N(C)CCN(C)C — recovery (storage stability; human dried blood spots; 72 h, on ice, medium QC level): 64.2%
CS(=O)(=O)c1ccc(-c2ccc(C3CCCCC3)cc2)cn1 — hepatic clearance (liver microsome stability; cynomolgus liver microsomes; 1 µM): 36 mL/min/kg
O=C(Nc1cnccc1-c1ccc([18F])nc1)c1ccnc(NC(=O)C2CC2)c1 — SUV (mice, transgenic, GSK-3β, early-stage, pancreas; intravenous, dose not given, 120 min): 0.215
CC(=O)Nc1ccc([C@H]2[C@@H](F)[C@@H](F)C[C@@H](F)[C@H]2F)cc1 — hepatic clearance (liver microsome stability; mouse liver microsomes; 1 µM): 77 mL/min/kg
C=C1C[C@]2(C(=O)OC)C=C(C(=O)Nc3cccc(C(=O)Nc4ccc(Nc5nccc(-c6cccnc6)n5)c(C)c4)c3)C(=O)[C@H]1C2 — compound remaining (Wistar rat, male, plasma; 10 µM, 20 min): 4.28% and 2.02%
CCCC[C@H](OC(C)=O)c1ccccc1C(=O)O — MRT(0-t) (Sprague-Dawley rats, both sexes, whole blood; intravenous, 20 mg/kg single dose): 2.1 ± 0.18 h
CC[C@H](C)[C@@H]1NC(=O)[C@H](Cc2ccc(O)cc2)NC(=O)CCCSC[C@@H](C(=O)N(CC(=O)N[C@@H](CC(C)C)C(=O)NCC(N)=O)Cc2ccc(F)cc2)NC(=O)[C@H](CC(N)=O)NC(=O)[C@H](CCC(N)=O)NC1=O — AE leading to discontinuation (human; intranasal, 200 µg single dose): 0%
Cc1ccc(OCC(=O)N(Cc2cccs2)c2ccn[nH]2)cc1 — remaining compound (rat plasma; 750 ng/mL, 1 h, 37 °C, unit not given; baseline: time zero): 0.7
CCC1=[N+]2N=C(/C=C/C=C/c3ccc(C(F)(F)F)cc3)C(=O)O[B-]2(c2ccccc2)Oc2cc(N(CC)CC)ccc21 (stereo not drawn) — fluorescence emission maximum (toluene): 550 nm
COc1cccc(OC)c1-c1cc(C(=O)NC2(C(=O)O)C3CC4CC(C3)CC2C4)nn1-c1ccc(C(=O)N(C)CCOCCN(C)C(=O)[C@H](CCCCNC(=O)[C@H](CC(C)C)NC(=O)C2OC2C(=O)O)NC(=O)CN2CCN(CC(=O)[O-])CCN(CC(=O)[O-])CCN(CC(=O)[O-])CC2)cc1C(C)C.[177Lu+3] (mixture of isomers) — tissue uptake (mouse, HT-29 xenograft, spleen; 4 h post injection): 0.81 %ID/g
C/C(N)=N/C(=N\S(=O)(=O)c1ccc(C(F)(F)F)cc1)N1C[C@H](c2ccccc2)C(c2ccc(Cl)cc2)=N1 — Cmax (male C57BL/6 mouse, heart; intravenous, 10 mg/kg): 7720 ng/mL
COC1C=COC2(C)Oc3c(C)c(O)c4c(c3C2=O)C2=NC3(CCN(CC(C)C)CC3)NC2=C(NC(=O)C(C)=CC=CC(C)C(O)C(C)C(O)C(C)C(OC(=O)c2cncnc2)C1C)C4=O (stereo not drawn) — fAUC/MIC ratio (CD-1 mouse female, plasma; oral, 10 mg/kg): 96.4
O=C(NCCOc1ccc(F)cc1)c1ccc(C2CCCCC2)cc1 — hepatic clearance (liver microsome stability; rat liver microsomes; 1 µM): 52 mL/min/kg
CC(C)C[C@H](NC(=O)[C@H](CO)NC(=O)[C@H](CCC(=O)O)NC(=O)CNC(=O)[C@H](C)NC(=O)OCc1ccccc1)C(=O)N[C@@H](Cc1ccc(O)cc1)C(=O)N[C@@H](CCC(=O)O)C(N)=O — compound remaining (metabolic stability; human, plasma; 2 h): 88.3%
COc1cccc(OC)c1-c1cc(C(=O)NC2(C(=O)O)C3CC4CC(C3)CC2C4)nn1-c1ccc(C(=O)N(C)CCCN(C)CCCN(C)C(=O)[C@H](CCCCNC(=O)[C@H](CC(C)C)NC(=O)C2OC2C(=O)O)NC(=O)CN2CCN(CC(=O)[O-])CCN(CC(=O)[O-])CCN(CC(=O)[O-])CC2)cc1C(C)C.[177Lu+3] (mixture of isomers) — tumour-to-kidney ratio (mouse, HT-29 xenograft; 24 h post injection, biodistribution; baseline: tumour over kidney uptake): 1.09
CC(C)OC(=O)[C@H](CO)NCc1cc(Cl)c(OCc2cccc(-c3ccccc3)c2Br)cc1OCc1cccnc1 — body weight (hPD-L1 MC-38 tumour, humanised hPD-1 C57BL/6 mouse; oral, 5 mg/kg × 21, day 21): 21.4 ± 0.9 g
C=C[C@]1(C)C[C@@H](OC(=O)CSc2ccc(NC(=O)c3ccco3)cc2)[C@]2(C)[C@H](C)CC[C@]3(CCC(=O)[C@H]32)[C@@H](C)[C@@H]1O — AUC(0-24 h) (M. gallisepticum-infected chickens, plasma; intramuscular, 80 mg/kg single dose): 18600 ng·h/mL
CC(C(=O)O)n1nc(Cn2cc3cc(OCC[18F])c(Cl)cc3n2)c2ccccc2c1=O (racemic) — tracer uptake (rat, liver; 1 h): 0.82 %ID/g
O=C(O)Cc1ccccc1Nc1c(Cl)cccc1Cl — hepatic intrinsic clearance (human liver microsomes; 1 nM): 114 mL/min/kg
COc1ccc2c(c1)CN(C(=O)CCN1CCC(Cc3ccccc3)CC1)CC[S@@+]2[O-] — unbound Cmax (healthy male volunteers, plasma; intravenous, 0.6 mg/kg): 400 nM
O=C(Nc1ccc([C@H]2[C@@H](F)[C@@H](F)C[C@@H](F)[C@H]2F)cc1)C1CC1 — hepatic clearance (liver microsome stability; rat liver microsomes; 1 µM): 15 mL/min/kg
CC(C)=CCc1cc(C(=O)/C=C/c2ccc(O)cc2)c(O)cc1O — CLint (human liver microsomes; formation of oxidised bavachin metabolite, with: NADPH): 16.4 µL/min/mg
COc1cccc(OC)c1-c1cc(C(=O)NC2(C(=O)O)C3CC4CC(C3)CC2C4)nn1-c1ccc(C(=O)NCCNC(=O)[C@H](CCCCNC(=O)[C@H](CC(C)C)NC(=O)C2OC2C(=O)O)NC(=O)CN2CCN(CC(=O)[O-])CCN(CC(=O)[O-])CCN(CC(=O)[O-])CC2)cc1C(C)C.[177Lu+3] (mixture of isomers) — tumour-to-bone ratio (mouse, HT-29 xenograft; 168 h post injection, biodistribution; baseline: tumour over bone uptake): 5.95
C=CC(=O)Nc1cc(Nc2nccc(-c3cn(C)c4ccccc34)n2)c(OC)cc1N(C)CCNC — recovery (storage stability; human plasma; 30 d, -80 °C, MQC level): 99.5%
COc1cc(N2CCN(C(=O)C3CCCN3)CC2)ccc1Nc1ncc(Cl)c(Nc2ccccc2P(C)(C)=O)n1 (stereo not drawn) — body weight (nude mice, NCI-H3122 xenograft; oral, dose not given, day 15): 25 g and 23.2 g and 23 g and 23.7 g and 23.5 g
CC[C@H](C)[C@H](NC(=O)[C@H](CCC(N)=O)NC(=O)[C@@H](NC(=O)[C@@H]1CCCN1[C@@H]1CN(C(=O)[C@H](CCCCN)NC(=O)[C@H](CC(N)=O)NC(=O)[C@@H](NC(=O)[C@@H](NC(=O)[C@H](CCC(N)=O)NC(=O)[C@@H](N)C(C)C)[C@@H](C)CC)[C@@H](C)CC)CC[C@H]1NS(=O)(=O)c1ccc(C)cc1)C(C)C)C(=O)N[C@H](C(=O)N[C@@H](Cc1ccc(O)cc1)C(=O)N[C@@H](CCCCN)C(N)=O)C(C)C — helix content (CD spectroscopy; 20 mM phosphate buffer; 125 µM, 20 °C): 7.2%
O=C(Nc1cnccc1-c1ccc([18F])cc1)c1ccnc(NC(=O)C2CC2)c1 — SUV (FVB/NJ mouse, both sexes, brain; intravenous, 5 min): 0.92
CCN(CC)c1ccc2c(c1)O[B-]1(c3ccccc3)OC(=O)C(c3ccccc3)=N[N+]1=C2C (stereo not drawn) — fluorescence lifetime (toluene): 2.67 ns
O=C(CN1CN(c2ccccc2)C2(CCN(C(=O)c3ccc4[nH]ncc4n3)CC2)C1=O)NCC(F)(F)F — CLint (human liver microsomes): 28 µL/min/mg protein
Cc1nn(-c2nc3c(F)cc(F)cc3s2)c(O)c1C(c1ccc(C(F)(F)F)cc1)c1c(C)nn(-c2nc3c(F)cc(F)cc3s2)c1O — AUC extrapolated observed (ICR mouse, plasma; intravenous, 5 mg/kg): 28.1% and 3.3% and 8.78%
COc1cc2ncnc(Oc3ccc(Nc4nccc5[nH]cc(-c6ccc(F)cc6)c(=O)c45)cc3F)c2cc1OC — AUC(0-t) (male beagle dog, plasma; oral, 4 mg/kg): 40100 ng·h/mL
C=C(NC(=O)c1csc(-c2nc3c(cc2O)-c2nc(cs2)C(=O)NC(C(C)O)C(=O)NC(=C(C)OC)c2nc(cs2)C(=O)NC2c4nc(cs4)C(=O)NC(COC(=O)c4c5c6c(cccc6n4O)COC(=O)C(OC4CC(C)(O)C(N(C)C)C(C)O4)C2OC5)c2nc-3cs2)n1)C(N)=O (stereo not drawn) — AUC(0-inf) (Sprague-Dawley rats, female, plasma; intravenous infusion, 6 mg/kg, day 1, multiple dosing): 2070 ng·h/mL
CSCCC(C(=O)Nc1ccc2c(c1)OCCO2)N1Cc2ccccc2C1=O (stereo not drawn) — permeability coefficient (PAMPA; artificial membrane; 10 µM, 4 h): > 1 ×10⁻⁶ cm/s
O=C(c1ccc([C@H]2[C@@H](F)[C@@H](F)C[C@@H](F)[C@H]2F)cc1)N1CCC(F)CC1 — hepatic clearance (liver microsome stability; rat liver microsomes; 1 µM): 35 mL/min/kg
[123I]c1ccc2nc(-c3ccc(-n4ccnn4)nc3)cn2c1 — tracer uptake (male Wistar rat, muscle; intravenous, 4 MBq, 14 h): 0.003 %ID/g
C=Cc1cccc([B-]23OC(=O)C(c4ccccc4)=N[N+]2=Cc2ccc(N(CC)CC)cc2O3)c1 (stereo not drawn) — fluorescence emission maximum (toluene): 508 nm
O=C(NS(=O)(=O)c1cccs1)c1cc2ccccc2n1Cc1ccc(Br)c2ccccc12 — plasma concentration (Sprague-Dawley rat, male; intravenous, dose not given, 0.25 h): 1290 ng/mL
c1cc(C2CCCCC2)ccc1-c1cnc(N2CCOCC2)nc1 — hepatic clearance (liver microsome stability; cynomolgus liver microsomes; 1 µM): 32 mL/min/kg
CC(C)(O)c1ncc([S@](N)(=O)=NC(=O)Nc2c3c(cc4c2CCC4)CCC3)s1 — subjects with adverse events (item: Gastrointestinal disorders; healthy human volunteers; oral, 30 mg once daily, 14 days, capsule formulation): 50%
Cc1[nH]nc2c1N=C(c1ccccc1Cl)c1cnc(N3CCOCC3)cc1N2 — unbound fraction (dog plasma): 0.0247
COC(=O)[C@@]1(C)C=C(C(=O)Nc2cccc(C(=O)Nc3ccc(Nc4nccc(-c5cccnc5)n4)c(C)c3)c2)C(=O)CC1 — compound remaining (metabolic stability; Wistar rat, male, primary hepatocytes; 1 µM, 20 min): 38.4%
COc1cccc(OC)c1-c1cc(C(=O)NC2(C(=O)O)C3CC4CC(C3)CC2C4)nn1-c1ccc(C(=O)N(C)CCCN(C)C(=O)[C@H](CCCCNC(=O)[C@H](CC(C)C)NC(=O)C2OC2C(=O)O)NC(=O)CN2CCN(CC(=O)[O-])CCN(CC(=O)[O-])CCN(CC(=O)[O-])CC2)cc1C(C)C.[177Lu+3] (mixture of isomers) — tumour-to-blood ratio (mouse, HT-29 xenograft; 72 h post injection, biodistribution; baseline: tumour over blood uptake): 50.1
CN1CCC[C@]1(C)/C=C/S(=O)(=O)NC(=O)Nc1c2c(cc3c1CCC3)CCC2 — subjects with adverse event (item: respiratory, thoracic, mediastinal disorders; human; oral, 50 mg twice daily, 14 days, multiple ascending dose): 16.7%
O=C(N1CCCCC1)C12CC(c3ccccc3)(C1)C2(Cl)Cl — compound remaining (metabolic stability; human, liver microsomes; 2 µM, 25 min, pH 7.4): 58%
COc1cccc(OC)c1-c1cc(C(=O)NC2(C(=O)O)C3CC4CC(C3)CC2C4)nn1-c1ccc(C(=O)N(C)CCOCCOCCN(C)C(=O)[C@H](CCCCNC(=O)[C@H](CC(C)C)NC(=O)C2OC2C(=O)O)NC(=O)CN2CCN(CC(=O)[O-])CCN(CC(=O)[O-])CCN(CC(=O)[O-])CC2)cc1C(C)C.[177Lu+3] (mixture of isomers) — tumour-to-blood ratio (mouse, HT-29 xenograft; 72 h post injection, biodistribution; baseline: tumour over blood uptake): 12.1
O=C(CN1CCOCC1)Nc1ccc([C@H]2[C@@H](F)[C@@H](F)C[C@@H](F)[C@H]2F)cc1 — hepatic clearance (liver microsome stability; mouse liver microsomes; 1 µM): 30 mL/min/kg
C[C@]12C[C@H](c3ccc(S(C)(=O)=O)cc3)C3=C4CCC(=O)C=C4CC[C@H]3[C@@H]1CC[C@@]2(O)C(F)(F)C(F)(F)F — plasma concentration (item: compound (parent); healthy human volunteers, pooled plasma; oral, 5 mg daily, day 28, 1.5 h): 27.6 ng/mL
